Measurements from different studies.
Parts stem from different laboratories: compare values within a part only. Positions count from the first letter of the parent shown.

Study 1
Target: ABI1, truncated, D143A, DHFR fusion (Arabidopsis thaliana)
Technique: DHFR PCA, deep sequencing
Medium: yeast
Setting: methotrexate growth selection, single substitutions
Together with: (+)-ABA 17 µM
Baseline: wild-type fitted maximum
Direction: higher = stronger binding
Parent: PYL1, truncated, DHFR fusion (Arabidopsis thaliana); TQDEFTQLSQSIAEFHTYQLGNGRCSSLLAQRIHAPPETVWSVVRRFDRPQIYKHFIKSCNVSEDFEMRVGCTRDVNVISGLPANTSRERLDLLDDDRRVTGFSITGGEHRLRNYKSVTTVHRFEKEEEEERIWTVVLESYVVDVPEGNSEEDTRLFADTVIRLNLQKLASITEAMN
`D65C`: “relative binding score” 70.5%.
`V118L`: “relative binding score” 48.4%.
Under “relative binding score”, `T119S` is recorded as 22.6%.
`E89F`: “relative binding score” 0.63%.
For `A175M`, “relative binding score” read 85.2%.

Study 2
Target: Histone acetyltransferase KAT6A, winged helix 1, GST fusion (KAT6A, Homo sapiens, UniProt Q92794, residues 1-85)
Technique: protein binding microarray
Molecule type: double-stranded DNA, one strand shown
Medium: in vitro
Tested at: not given
Setting: 8-mer, flanks averaged, mean of 2 arrays, mostly near background
Baseline: not given
Direction: higher = stronger binding
Residues (chain): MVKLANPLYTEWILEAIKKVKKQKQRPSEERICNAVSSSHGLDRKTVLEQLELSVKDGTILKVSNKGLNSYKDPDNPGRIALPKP
With `AGATTAAT` the E-score was -0.0588.
`ACCATCGA` gave an E-score of -0.263.
The E-score of `GCGCTCGA` is reported as 0.276.
For `ACATCAGG`, the E-score was -0.283.
For `AATTTGAA`, the E-score was -0.0156.
With `AATTATAA` the E-score was -0.0322.
With `ATTTGGCG` the E-score was -0.0805.
The E-score of `ACATACTA` is reported as -0.0903.
For `ACACTTGG`, the E-score was -0.22.

Study 3
Target: Prothrombin, mature alpha-thrombin (F2, Homo sapiens, UniProt P00734)
Technique: aptamer microarray, sandwich
Molecule type: DNA with 2'F-ANA
Medium: in vitro
Tested at: 200 nM
Setting: whole 15-mer aptamer, many near background
Together with: Cy3 exosite-II aptamer, 400 nM
Direction: higher = stronger binding
Oligonucleotide: GGTTGGTGTGGTTGG
`2'F-ANA at 3 8 9 15`: “mean fluorescence intensity” 1110 a.u.
`2'F-ANA at 1 3 4 5 7 10 12 13 14 15`: “mean fluorescence intensity” 58.7 a.u.
Under “mean fluorescence intensity”, `2'F-ANA at 1 2 3 4 7 10 11 12 14` is recorded as 48.5 a.u.
`2'F-ANA at 2 3 10 14 15`: “mean fluorescence intensity” 341 a.u.
For `2'F-ANA at 1 3 4 5 6 9 13 14 15`, “mean fluorescence intensity” read 51.5 a.u.
`2'F-ANA at 1 4 7 9 12 13`: “mean fluorescence intensity” 159 a.u.
`2'F-ANA at 3 5 8 9 11 13 15` — result for “mean fluorescence intensity”: 119 a.u.
For `2'F-ANA at 1 2 4 6 7 9 10 12 13`, “mean fluorescence intensity” read 50.6 a.u.
Under “mean fluorescence intensity”, `2'F-ANA at 1 2 3 5 11 15` is recorded as 53 a.u.

Single results of other studies
`PhoQ, residues 284 288 289 292 302 303 SSTLSG` has a fold induction of 6.71 (PhoP, residues 12 14 15 18 19 NQGLL (Escherichia coli, UniProt P23836); Sort-seq, measured: YFP reporter; E. coli; PhoQ-PhoP variant library, together with: 10 µM Mg2+; baseline: high Mg2+ state, higher = stronger signaling).
